# Assay results gathered from unrelated publications.
# Compare with care: the assays were run in different laboratories. ± gives the spread as reported.
# Cell line: U-251
SMILES,assay,setting,scale,measurement,result
O=C(Nc1nnc2n3c(=S)[nH][nH]c3nc(-c3ccc(Cl)cc3)c1-2)c1ccccc1,SRB,"10 µM, NCI60 single-dose screen",reference: untreated,cell growth,72.8%
COc1ccc(-c2ccc3ncc4c(c3c2)n([C@@H]2CCN(C)CC2(F)F)c(=O)n4C)cn1,immunofluorescence,"30 nM, 1 h after irradiation, added: radiation",,RT-induced 53BP1 foci,75 ± 6.3%
CCCN1CCN(c2ccc3[nH]c(-c4ccc5[nH]c(-c6cc(OC)c(OC)c(OC)c6)nc5c4)nc3c2)CC1,SRB,"10 µM, 48 h",,growth percent,66.3%
O=C1NC(c2ccccc2)(c2ccccc2)C(=O)N1Cc1cn(-c2cc3ccccc3oc2=O)nn1,,"10 µM, CNS cancer cell line, NCI60",,growth percentage,86.5%
NNc1nc(-c2ccc(Cl)cc2)c2c(NC(=O)c3ccccc3)nnc-2[nH]1,SRB,"10 µM, NCI60 single-dose screen",reference: untreated,cell growth,96.8%
CCCC(CCC)C(=O)OCc1cn(-c2c3ccccc3nc3ccccc23)nn1,,"10 µM, CNS cancer cell line, NCI60",,growth percentage,92.7%
C#C[C@@]1(O)[C@@H](CO)O[C@@H](n2ccc3c(N)ncnc32)[C@@H]1O,SRB,NCI-60 screen,,TGI,11.8 µM
CCCCN1CCN(c2ccc3[nH]c(-c4ccc5[nH]c(-c6ccc(OCC)c(OCC)c6)nc5c4)nc3c2)CC1,SRB,"10 µM, 48 h",,growth percent,-61.4%
CCOC(=O)CSc1nc(-c2ccc(Cl)cc2)c2c(NC(=O)c3ccccc3)nnc-2[nH]1,SRB,"10 µM, NCI60 single-dose screen",reference: untreated,cell growth,102%
CCN(CC)c1ccc(C=NNC(=O)CSc2nc3ccccc3c(=O)n2Cc2ccc(S(N)(=O)=O)cc2)c(O)c1,NCI five-dose screen,,,TGI,> 100 µM
CCCCN1CCN(c2ccc3[nH]c(-c4ccc5[nH]c(-c6ccc(C(F)(F)F)cc6)nc5c4)nc3c2)CC1,SRB,"10 µM, 48 h",,growth percent,-86.6%
Cc1n[nH]c2nc(-c3ccc(Cl)cc3)c3c(NC(=O)c4ccccc4)nnc-3n12,SRB,"10 µM, NCI60 single-dose screen",reference: untreated,cell growth,103%
Cc1cc(=O)[nH]c(=O)n1Cc1cn(-c2c3ccccc3nc3ccccc23)nn1,,"10 µM, CNS cancer cell line, NCI60",,growth percentage,88.3%
O=C1NCCc2[nH]c(-c3ccncc3)cc21,MTS,NCI60 panel,,IC50,4.57 µM
C=CC(=O)Nc1cc(Nc2nccc(-c3cn(C)c4ccccc34)n2)c(OC)cc1N(C)CCN(C)C,refers to: PIK3CA,"30 µM, 24 h",reference: control,mRNA level,~1.5 fold
CCCN1CCN(c2ccc3[nH]c(-c4ccc5[nH]c(-c6ccc(C(F)(F)F)cc6)nc5c4)nc3c2)CC1,SRB,"10 µM, 48 h",,growth percent,-82.2%
Cn1cncc1C1=CN(c2ncnc3[nH]cnc23)CCS1,,CNS cancer,,GI50,28.2 µM
Cc1cc(C)n(-c2nc(-c3ccc(Cl)cc3)c3c(NC(=O)c4ccccc4)nnc-3[nH]2)n1,SRB,"10 µM, NCI60 single-dose screen",reference: untreated,cell growth,87.9%
CCCN1CCN(c2ccc3[nH]c(-c4ccc5[nH]c(-c6ccc(OCC)c(OCC)c6)nc5c4)nc3c2)CC1,SRB,"10 µM, 48 h",,growth percent,-71.9%
O=c1ccn(Cc2cn(-c3cc4ccccc4oc3=O)nn2)c(=O)[nH]1,,"10 µM, CNS cancer cell line, NCI60",,growth percentage,102%
Cc1cc(=O)[nH]n1-c1nc(-c2ccc(Cl)cc2)c2c(NC(=O)c3ccccc3)nnc-2[nH]1,SRB,"10 µM, NCI60 single-dose screen",reference: untreated,cell growth,81.7%
COc1ccc(OC)c(-c2nc3ccc(-c4nc5ccc(N6CCN(C)CC6)cc5[nH]4)cc3[nH]2)c1,SRB,"10 µM, 48 h",,growth percent,80.4%

# A few entries again:
SMILES,assay,setting,scale,measurement,result
Cc1cc(=O)[nH]n1-c1nc(-c2ccc(Cl)cc2)c2c(NC(=O)c3ccccc3)nnc-2[nH]1,SRB,"10 µM, NCI60 single-dose screen",reference: untreated,cell growth,81.7%
COc1ccc(OC)c(-c2nc3ccc(-c4nc5ccc(N6CCN(C)CC6)cc5[nH]4)cc3[nH]2)c1,SRB,"10 µM, 48 h",,growth percent,80.4%
CCCCN1CCN(c2ccc3[nH]c(-c4ccc5[nH]c(-c6ccc(OCC)c(OCC)c6)nc5c4)nc3c2)CC1,SRB,"10 µM, 48 h",,growth percent,-61.4%
